Assay results collected from several papers.
Protocols differ between the studies behind these lines. ± marks the error that the study gave.
Target: Broad substrate specificity ATP-binding cassette transporter ABCG2 (ABCG2, Homo sapiens, UniProt Q9UNQ0)
Sequence (Q9UNQ0 1-655, as in one of the studies): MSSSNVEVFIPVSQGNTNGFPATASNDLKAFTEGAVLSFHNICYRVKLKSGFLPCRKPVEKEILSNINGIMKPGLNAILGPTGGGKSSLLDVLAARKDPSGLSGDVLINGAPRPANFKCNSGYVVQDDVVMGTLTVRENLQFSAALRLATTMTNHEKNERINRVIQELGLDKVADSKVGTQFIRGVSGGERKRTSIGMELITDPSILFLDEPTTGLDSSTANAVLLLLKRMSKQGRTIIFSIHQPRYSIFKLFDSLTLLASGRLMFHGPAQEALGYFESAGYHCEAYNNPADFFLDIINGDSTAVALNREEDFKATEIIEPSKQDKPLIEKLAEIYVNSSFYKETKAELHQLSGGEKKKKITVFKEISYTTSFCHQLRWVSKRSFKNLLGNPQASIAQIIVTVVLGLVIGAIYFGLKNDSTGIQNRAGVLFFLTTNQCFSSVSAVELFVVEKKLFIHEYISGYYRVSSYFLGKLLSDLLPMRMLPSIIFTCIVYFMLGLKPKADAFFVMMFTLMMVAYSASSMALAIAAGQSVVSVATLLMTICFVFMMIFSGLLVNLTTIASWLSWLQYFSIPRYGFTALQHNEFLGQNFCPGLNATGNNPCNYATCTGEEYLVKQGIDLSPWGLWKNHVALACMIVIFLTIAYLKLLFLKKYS

SMILES	assay	system	conditions	how to read	measurement	result
CC(O)c1cc(C(=O)N[C@@H](C)Cn2ccc(-c3ccc(C#N)c(Cl)c3)n2)[nH]n1 (stereo partly shown)	substrate	MDCK transfected	–	–	efflux ratio	> 2
O=c1ccc(=O)c2c1c1c(=O)c3ccccc3c1n2CCc1ccccc1	mitoxantrone efflux, inhibitor, flow cytometry	HEK293 transfected with ABCG2	10 µM, 30 min, together with: mitoxantrone 5 µM	baseline: Ko143 1 µM	inhibition	18%
O=C(O)[C@H]1O[C@@H](Oc2c(-c3ccc(O)cc3)oc3ccccc3c2=O)[C@H](O)[C@@H](O)[C@@H]1O	glucuronide efflux, substrate	HeLa cells expressing UGT1A9	–	–	Km	35.9 ± 11.9 µM
C=CC(=O)N1CCC([C@@H]2CCNc3c(C(N)=O)c(-c4ccc(Oc5ccccc5)cc4)nn32)CC1	transport, refers to: Lucifer Yellow uptake	membrane vesicles	1 µM	baseline: vehicle	remaining activity	94.5 ± 3.5%
COc1ccc2[nH]cc(CCNC(C)=O)c2c1	–	MDCK-II cells transduced with ABCG2	10 µM, 4 h	–	efflux ratio	1.11 ± 0.04
COc1ccccc1-c1cc2nc(-c3ccccc3)cc(N3CCN(C(=O)c4ccco4)CC3)n2n1	JC-1 dye efflux, inhibitor, flow cytometry	ABCG2-overexpressing cells	together with: JC-1 1 µM	–	IC50	1030 ± 170 nM
COc1ccc2c3c([nH]c2c1)[C@H](CC(C)C)N1C(=O)[C@H](CC(=O)O)NC(=O)[C@@H]1C3	inhibitor, refers to: protoporphyrin IX	A549 cells	1 µM, 2 h, together with: ALA 1 mM	–	inhibition	15%
O=C(c1ccc(Cl)cc1)N1CCN(c2cc(-c3ccccc3)nc3cc(-c4cccc(Cl)c4)nn23)CC1	JC-1 dye efflux, inhibitor, flow cytometry	ABCG2-overexpressing cells	together with: JC-1 1 µM	–	IC50	2670 ± 850 nM
Cc1cc(Nc2ncnc3ccc(NC4=NC(C)(C)CO4)cc23)ccc1Oc1ccn2ncnc2c1	substrate, bidirectional transwell permeability	MDCKII cells transfected with ABCG2	1 µM, 1 h, pH 7.4	baseline: without over with ABCG2 inhibitor	net efflux ratio	7.71
O=C(c1ccoc1)N1CCN(c2cc(-c3ccco3)nc3cc(-c4ccco4)nn23)CC1	JC-1 dye efflux, inhibitor, flow cytometry	ABCG2-overexpressing cells	together with: JC-1 1 µM	–	IC50	2350 nM
Cc1cc(=O)c2c3c(=O)c4ccccc4c3n(CCc3ccccc3)c2c1=O	mitoxantrone efflux, inhibitor, flow cytometry	HEK293 transfected with ABCG2	10 µM, 30 min, together with: mitoxantrone 5 µM	baseline: Ko143 1 µM	inhibition	99 ± 9%
O=C(O)[C@H]1O[C@@H](Oc2cccc3oc(-c4ccccc4)cc(=O)c23)[C@H](O)[C@@H](O)[C@@H]1O	glucuronide efflux, substrate	HeLa cells expressing UGT1A9	–	–	Km	> 17 µM
O=C(c1ccoc1)N1CCN(c2cc(-c3ccccc3)nc3cc(-c4ccc(Br)cc4)nn23)CC1	JC-1 dye efflux, inhibitor, flow cytometry	ABCG2-overexpressing cells	together with: JC-1 1 µM	–	IC50	760 ± 430 nM
